# Published values gathered from unrelated publications.
# Each numbered part is a random draw from the data of one study; scales do not carry over between parts.
# UniProt Q86YV6, sequence (whole entry, looked up): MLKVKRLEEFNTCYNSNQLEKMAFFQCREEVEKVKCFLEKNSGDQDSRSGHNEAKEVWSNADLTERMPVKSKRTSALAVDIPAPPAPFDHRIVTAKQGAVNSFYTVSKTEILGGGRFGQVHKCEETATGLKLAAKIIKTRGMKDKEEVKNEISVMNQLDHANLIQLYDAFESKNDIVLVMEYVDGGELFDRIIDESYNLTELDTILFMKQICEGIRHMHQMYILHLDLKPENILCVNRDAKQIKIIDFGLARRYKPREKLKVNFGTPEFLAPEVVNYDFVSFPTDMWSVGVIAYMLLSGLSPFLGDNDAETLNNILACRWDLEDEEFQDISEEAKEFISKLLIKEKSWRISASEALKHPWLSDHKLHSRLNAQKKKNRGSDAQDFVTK
# UniProt P23458, sequence (whole entry, looked up): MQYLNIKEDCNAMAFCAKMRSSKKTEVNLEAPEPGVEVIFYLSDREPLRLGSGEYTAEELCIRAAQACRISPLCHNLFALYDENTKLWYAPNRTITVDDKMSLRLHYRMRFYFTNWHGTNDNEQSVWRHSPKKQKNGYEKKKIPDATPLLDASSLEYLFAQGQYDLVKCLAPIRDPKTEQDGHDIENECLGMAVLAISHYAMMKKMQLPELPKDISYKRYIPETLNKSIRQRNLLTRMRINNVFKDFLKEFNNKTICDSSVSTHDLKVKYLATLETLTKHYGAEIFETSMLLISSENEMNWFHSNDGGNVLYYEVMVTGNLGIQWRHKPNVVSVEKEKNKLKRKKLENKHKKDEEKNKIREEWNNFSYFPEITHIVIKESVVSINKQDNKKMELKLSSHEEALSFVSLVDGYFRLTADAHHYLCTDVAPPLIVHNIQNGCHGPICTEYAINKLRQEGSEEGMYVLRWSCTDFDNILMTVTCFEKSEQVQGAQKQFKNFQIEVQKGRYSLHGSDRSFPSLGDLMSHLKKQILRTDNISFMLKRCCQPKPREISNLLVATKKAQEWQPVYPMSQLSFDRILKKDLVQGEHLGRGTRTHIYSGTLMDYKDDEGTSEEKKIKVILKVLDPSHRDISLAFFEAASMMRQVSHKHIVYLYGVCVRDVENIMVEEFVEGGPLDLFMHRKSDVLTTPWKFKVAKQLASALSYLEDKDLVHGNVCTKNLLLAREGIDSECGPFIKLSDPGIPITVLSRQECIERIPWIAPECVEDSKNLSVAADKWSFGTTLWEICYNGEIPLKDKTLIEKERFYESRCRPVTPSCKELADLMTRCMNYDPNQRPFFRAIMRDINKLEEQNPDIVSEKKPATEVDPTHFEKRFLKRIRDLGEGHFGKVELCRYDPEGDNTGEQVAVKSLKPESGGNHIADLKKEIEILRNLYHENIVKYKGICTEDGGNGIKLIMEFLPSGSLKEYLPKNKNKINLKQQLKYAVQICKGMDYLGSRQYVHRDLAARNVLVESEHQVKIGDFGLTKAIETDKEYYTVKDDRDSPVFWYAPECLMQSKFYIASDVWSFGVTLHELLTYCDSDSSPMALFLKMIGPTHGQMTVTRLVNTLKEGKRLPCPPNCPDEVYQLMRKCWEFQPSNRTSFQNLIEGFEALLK
# UniProt P53778, sequence (whole entry, looked up): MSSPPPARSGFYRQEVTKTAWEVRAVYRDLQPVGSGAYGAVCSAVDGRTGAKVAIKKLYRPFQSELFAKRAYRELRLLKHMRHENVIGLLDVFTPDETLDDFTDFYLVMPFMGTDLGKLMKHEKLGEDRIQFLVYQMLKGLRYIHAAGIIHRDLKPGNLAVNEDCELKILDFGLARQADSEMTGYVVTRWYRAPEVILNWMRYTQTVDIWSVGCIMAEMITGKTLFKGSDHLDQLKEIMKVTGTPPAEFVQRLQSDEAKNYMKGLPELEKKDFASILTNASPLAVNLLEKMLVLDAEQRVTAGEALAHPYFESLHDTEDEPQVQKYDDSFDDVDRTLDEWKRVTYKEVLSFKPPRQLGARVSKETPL
# UniProt Q9NWZ3, sequence (whole entry, looked up): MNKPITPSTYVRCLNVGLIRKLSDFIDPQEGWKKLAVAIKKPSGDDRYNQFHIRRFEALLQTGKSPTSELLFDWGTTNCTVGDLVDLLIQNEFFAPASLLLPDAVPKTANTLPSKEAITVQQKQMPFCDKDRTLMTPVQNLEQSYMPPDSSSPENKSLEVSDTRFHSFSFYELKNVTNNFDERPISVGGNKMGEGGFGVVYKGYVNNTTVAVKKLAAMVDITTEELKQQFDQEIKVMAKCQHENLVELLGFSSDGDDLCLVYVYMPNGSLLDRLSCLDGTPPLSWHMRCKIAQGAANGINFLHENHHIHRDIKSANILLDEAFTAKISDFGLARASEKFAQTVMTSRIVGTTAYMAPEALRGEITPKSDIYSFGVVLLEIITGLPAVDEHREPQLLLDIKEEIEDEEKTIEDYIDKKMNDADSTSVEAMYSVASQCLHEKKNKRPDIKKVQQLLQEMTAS
# UniProt P57058, sequence (whole entry, looked up): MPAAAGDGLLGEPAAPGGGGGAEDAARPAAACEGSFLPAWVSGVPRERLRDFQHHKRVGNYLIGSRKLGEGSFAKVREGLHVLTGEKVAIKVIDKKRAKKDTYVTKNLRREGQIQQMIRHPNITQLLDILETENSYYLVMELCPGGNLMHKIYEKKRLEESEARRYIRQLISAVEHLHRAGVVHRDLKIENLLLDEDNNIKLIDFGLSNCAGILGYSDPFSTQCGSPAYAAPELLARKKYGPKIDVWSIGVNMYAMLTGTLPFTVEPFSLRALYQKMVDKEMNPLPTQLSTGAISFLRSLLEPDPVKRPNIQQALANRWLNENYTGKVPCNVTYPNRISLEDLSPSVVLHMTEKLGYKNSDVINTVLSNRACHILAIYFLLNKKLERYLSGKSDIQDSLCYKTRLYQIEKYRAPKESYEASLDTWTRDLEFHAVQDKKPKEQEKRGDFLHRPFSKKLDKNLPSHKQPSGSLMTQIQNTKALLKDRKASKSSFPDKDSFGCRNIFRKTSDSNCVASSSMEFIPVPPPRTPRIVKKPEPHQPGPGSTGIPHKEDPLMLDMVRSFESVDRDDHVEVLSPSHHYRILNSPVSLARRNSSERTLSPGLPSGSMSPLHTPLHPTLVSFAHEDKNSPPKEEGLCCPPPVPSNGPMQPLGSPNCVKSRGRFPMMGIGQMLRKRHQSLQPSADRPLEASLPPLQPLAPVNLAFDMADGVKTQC
# UniProt Q15569, sequence (whole entry, looked up): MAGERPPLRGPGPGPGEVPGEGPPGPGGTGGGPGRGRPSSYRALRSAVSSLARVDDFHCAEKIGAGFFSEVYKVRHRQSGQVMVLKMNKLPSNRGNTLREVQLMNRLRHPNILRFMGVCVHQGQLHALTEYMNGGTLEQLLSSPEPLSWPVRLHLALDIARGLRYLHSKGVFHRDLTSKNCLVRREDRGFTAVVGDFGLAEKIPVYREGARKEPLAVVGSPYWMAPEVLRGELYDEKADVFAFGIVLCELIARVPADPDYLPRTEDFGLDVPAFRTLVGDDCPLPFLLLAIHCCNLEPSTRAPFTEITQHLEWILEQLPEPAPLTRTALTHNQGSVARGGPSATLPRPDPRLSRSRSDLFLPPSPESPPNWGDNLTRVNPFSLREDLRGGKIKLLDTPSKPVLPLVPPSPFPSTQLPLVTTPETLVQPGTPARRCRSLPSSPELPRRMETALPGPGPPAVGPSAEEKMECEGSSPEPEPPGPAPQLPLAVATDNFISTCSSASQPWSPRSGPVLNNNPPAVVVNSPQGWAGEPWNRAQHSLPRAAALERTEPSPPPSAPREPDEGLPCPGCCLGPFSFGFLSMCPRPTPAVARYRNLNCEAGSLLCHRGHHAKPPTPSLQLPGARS
# UniProt Q07912, sequence (whole entry, looked up): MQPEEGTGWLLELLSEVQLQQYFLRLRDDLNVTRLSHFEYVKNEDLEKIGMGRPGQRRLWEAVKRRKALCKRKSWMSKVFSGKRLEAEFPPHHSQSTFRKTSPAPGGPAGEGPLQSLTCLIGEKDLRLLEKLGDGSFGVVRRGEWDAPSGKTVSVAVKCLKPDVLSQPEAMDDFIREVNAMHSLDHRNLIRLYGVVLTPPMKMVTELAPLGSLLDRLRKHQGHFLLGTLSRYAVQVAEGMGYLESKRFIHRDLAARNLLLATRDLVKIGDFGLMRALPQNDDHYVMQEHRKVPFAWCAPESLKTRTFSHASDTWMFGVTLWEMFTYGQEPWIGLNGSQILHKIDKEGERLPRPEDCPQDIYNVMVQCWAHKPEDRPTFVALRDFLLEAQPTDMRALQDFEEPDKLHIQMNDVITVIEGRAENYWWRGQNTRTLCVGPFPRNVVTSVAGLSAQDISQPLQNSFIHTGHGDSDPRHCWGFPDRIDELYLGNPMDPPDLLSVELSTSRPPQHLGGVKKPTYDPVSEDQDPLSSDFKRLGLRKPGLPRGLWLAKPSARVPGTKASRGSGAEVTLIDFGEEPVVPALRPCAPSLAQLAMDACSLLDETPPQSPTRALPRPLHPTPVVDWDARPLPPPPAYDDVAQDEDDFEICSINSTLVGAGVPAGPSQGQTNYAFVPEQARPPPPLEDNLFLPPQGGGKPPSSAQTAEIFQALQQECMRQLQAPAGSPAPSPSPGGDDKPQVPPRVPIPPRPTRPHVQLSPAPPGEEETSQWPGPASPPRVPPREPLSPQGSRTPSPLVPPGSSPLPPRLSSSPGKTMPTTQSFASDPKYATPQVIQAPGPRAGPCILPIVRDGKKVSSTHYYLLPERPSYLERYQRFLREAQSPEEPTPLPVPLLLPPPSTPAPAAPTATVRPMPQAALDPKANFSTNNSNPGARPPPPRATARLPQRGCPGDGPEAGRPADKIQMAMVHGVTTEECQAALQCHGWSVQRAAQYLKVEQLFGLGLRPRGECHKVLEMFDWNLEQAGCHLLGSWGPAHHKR

# Set 1
# Structure (SMILES): CCCCN(CCCC)C(=O)CN1C[C@@H](c2cc(OC)c3c(c2)OCO3)[C@H](C(=O)O)[C@H]1CC(C)(C)CCC
# Read-out: cell-free assay
# Technique: competition with immobilised ligand
# Tested at: 1 µM
target,remaining binding
"MYLK (Homo sapiens, UniProt Q15746)",84.4%
"PRKAA2 (Homo sapiens, UniProt P54646)",92.6%
"TESK1 (Homo sapiens, UniProt Q15569)",94.3%
"CLK3 (Homo sapiens, UniProt P49761)",100%
"CDK11B (Homo sapiens, UniProt P21127)",100%
"SGK3 (Homo sapiens, UniProt Q96BR1)",100%
"MYLK4 (Homo sapiens, UniProt Q86YV6)",100%
"PIK3CB (Homo sapiens, UniProt P42338)",100%
"TNK2 (Homo sapiens, UniProt Q07912)",91.6%
"Tyrosine-protein kinase JAK1, JH2 (JAK1, Homo sapiens, UniProt P23458)",100%
"PIK3CD (Homo sapiens, UniProt O00329)",87%
"HUNK (Homo sapiens, UniProt P57058)",96.8%
"NTRK3 (Homo sapiens, UniProt Q16288)",87.6%
"MAP2K1 (Homo sapiens, UniProt Q02750)",100%
"ROCK2 (Homo sapiens, UniProt O75116)",100%
"CDK14 (Homo sapiens, UniProt O94921)",100%

# Set 2
# Species: human
# Sample: microsomes or S9
# Tested at: 2 µM
# Time: 0.5 h
SMILES,remaining compound [%]
Cc1cccc(NC(=O)NC(C)c2n[nH]c(=O)n2C)n1 (centres unmarked),> 100
CC1(C)Cc2ccccc2C(c2sc3nc4c(cc3c2N)CCC4)=N1,0.559
CCOc1ccc(CCNS(=O)(=O)c2ccc3c(c2)C(C)(C)C(=O)N3)cc1OCC,< 1
COC(c1ccc(Cl)cc1)(c1ccc(Cl)cc1)C(Oc1nccc(C)n1)C(=O)O (centres unmarked),63
Nc1cccc(CCC2CCc3ccccc3N2)c1 (centres unmarked),70.6
CN(C[C@@H]1C[C@H](F)CN1Cc1cncnc1)c1cnc(C#N)cn1,95.5
CCCC(=O)OCCNc1cc(SCC(=O)OCC)c2nonc2c1[N+](=O)[O-],0.00607
CCC(CNC(=O)CCOCC(C)C)NC(=O)CCOCC(C)C (centres unmarked),24.2
O=C(C1CCCN1S(=O)(=O)c1ccc(-c2ccc(=O)[nH]n2)s1)N1CCc2ccccc21 (centres unmarked),21
O=C(Cc1noc2ccccc12)N1CCn2c1nc1ccccc12,64.1
CC(c1ccc([S+](C)[O-])cc1)N(C)C(=O)C1CCC(c2ccccc2)CC1 (centres unmarked),54.6
O=C1CC(c2ccc(S(=O)(=O)N3CCOC(COc4ccccc4)C3)cc2)CN1 (centres unmarked),44.3
Cc1ccc2cc(CN(CCO)S(=O)(=O)c3ccc(C(C)(C)C)cc3)c(=O)[nH]c2c1C,> 100
CC1(C)Cc2c(sc3[nH]c(=O)n(C4CCCCC4)c(=O)c23)CO1,17.1
O=C(Nc1ccc2c(c1)C(=O)N1CCC[C@H]1C(=O)N2)c1cc(-c2ccc3c(c2)CCO3)n[nH]1,59.6

# Set 3
# Cell line: HaCaT
# Tested at: 100 µM
# Time: 18 h
SMILES,viability
CCN1CCN(c2cc3c(cc2F)c(=O)c(C(=O)O)cn3C2CC2)CC1,121%
COC(=O)c1ccc2c(c1)NC(=O)/C2=C(\Nc1ccc(N(C)C(=O)CN2CCN(C)CC2)cc1)c1ccccc1,89%
C[C@]12CC[C@@H]3c4ccc(OC(=O)c5ccccc5)cc4CC[C@H]3[C@@H]1CC[C@@H]2O,18%
c1ccc2c(CC3=NCCN3)cccc2c1,107%
CCn1cc(C(=O)O)c(=O)c2cc3c(cc21)OCO3,114%
CCN1CCN(c2cc(-c3ccc(F)cc3)c3c(n2)CCCCCC3)CC1,80.8%
N#CC(c1ccc(Cl)cc1)c1c(Cl)cc(-n2ncc(=O)[nH]c2=O)cc1Cl (centres unmarked),52.4%
COc1ccccc1N1CCN(CC(O)COc2cccc3ccccc23)CC1 (centres unmarked),17.8%
COC1=C(OC)C(=O)C(C/C=C(\C)CC/C=C(\C)CC/C=C(\C)CC/C=C(\C)CC/C=C(\C)CC/C=C(\C)CC/C=C(\C)CC/C=C(\C)CC/C=C(\C)CCC=C(C)C)=C(C)C1=O,112%
CC(C)c1ccc2oc3nc(N)c(C(=O)O)cc3c(=O)c2c1,90.1%
Clc1ccccc1CN1CCc2sccc2C1,26.2%
Cc1nnc(SCC2=C(C(=O)O)N3C(=O)[C@@H](NC(=O)Cn4cnnn4)[C@H]3SC2)s1,110%
CC[C@H]1OC(=O)[C@H](C)[C@@H](O[C@H]2C[C@@](C)(OC)[C@@H](O)[C@H](C)O2)[C@H](C)[C@@H](O[C@@H]2O[C@H](C)C[C@H](N(C)C)[C@H]2O)[C@](C)(O)C[C@@H](C)C(=O)[C@H](C)[C@@H](O)[C@]1(C)O,98%
O=C(C[S+]([O-])Cc1ccco1)NC/C=C\COc1cc(CN2CCCCC2)ccn1 (centres unmarked),112%
N[C@@H](Cc1cc(I)c(Oc2ccc(O)c(I)c2)c(I)c1)C(=O)O,74.3%
CCOC(=O)[C@H](CCc1ccccc1)N[C@@H](C)C(=O)N1[C@H](C(=O)O)C[C@@H]2CCC[C@@H]21,91.7%

# Set 4
# SMILES: COc1ccc2c(c1)c(C1=C(c3c[nH]c4ccccc34)C(=O)NC1=O)cn2CCCN(C)C
# Read-out: enzyme activity
# Mode: inhibitor
# Tested at: 0.5 µM
# Relative to: control
target,remaining activity [%]
"IRAK4 (Homo sapiens, UniProt Q9NWZ3)",91.2
"EPHA5 (Homo sapiens, UniProt P54756)",87.2
"AKT3 (Homo sapiens, UniProt Q9Y243)",63.7
"CSNK2A1 (Homo sapiens, UniProt P68400)",95.9
"MAP3K10 (Homo sapiens, UniProt Q02779)",83.4
"CSNK1A1 (Homo sapiens, UniProt P48729)",62.3
"MAP4K2 (Homo sapiens, UniProt Q12851)",56.3
"PLK2 (Homo sapiens, UniProt Q9NYY3)",103
"MAPK12 (Homo sapiens, UniProt P53778)",84.8
"WNK2 (Homo sapiens, UniProt Q9Y3S1)",96.5
"LYN (Homo sapiens, UniProt P07948)",112
"CHEK1 (Homo sapiens, UniProt O14757)",88.8

# A few entries again (set 3):
SMILES,viability
CCN1CCN(c2cc(-c3ccc(F)cc3)c3c(n2)CCCCCC3)CC1,80.8%
N#CC(c1ccc(Cl)cc1)c1c(Cl)cc(-n2ncc(=O)[nH]c2=O)cc1Cl (centres unmarked),52.4%
COc1ccccc1N1CCN(CC(O)COc2cccc3ccccc23)CC1 (centres unmarked),17.8%
COC1=C(OC)C(=O)C(C/C=C(\C)CC/C=C(\C)CC/C=C(\C)CC/C=C(\C)CC/C=C(\C)CC/C=C(\C)CC/C=C(\C)CC/C=C(\C)CC/C=C(\C)CCC=C(C)C)=C(C)C1=O,112%
CC(C)c1ccc2oc3nc(N)c(C(=O)O)cc3c(=O)c2c1,90.1%
Clc1ccccc1CN1CCc2sccc2C1,26.2%
Cc1nnc(SCC2=C(C(=O)O)N3C(=O)[C@@H](NC(=O)Cn4cnnn4)[C@H]3SC2)s1,110%
CC[C@H]1OC(=O)[C@H](C)[C@@H](O[C@H]2C[C@@](C)(OC)[C@@H](O)[C@H](C)O2)[C@H](C)[C@@H](O[C@@H]2O[C@H](C)C[C@H](N(C)C)[C@H]2O)[C@](C)(O)C[C@@H](C)C(=O)[C@H](C)[C@@H](O)[C@]1(C)O,98%
